Results gathered from unrelated publications.
Numbered parts are unrelated; each lists some results of a single study.

Block 1 — technique: protein-binding microarray; form: hairpin DNA; medium: in vitro; concentration: not given; relative to: not given; direction: higher = stronger binding
Target: Runt-related transcription factor 1, full length (RUNX1, Homo sapiens, UniProt Q01196-8, residues 1-480)
Notes: whole hairpin DNA, median over replicate spots
Strand | median fluorescence
GAGGCCTGTTGTGGCGGGCCTCCTGGCCCGCCACAACAGGCCTCACACTC (5mC at 15) | 2110 a.u.
GAGGCCTGTTGTGGTTGGCCTCCTGGCCAACCACAACAGGCCTCACACTC | 3170 a.u.
GAGGCCTGTTGCTGTTGGCCTCCTGGCCAACAGCAACAGGCCTCACACTC | 1690 a.u.
GAGGCCTGTAGCGGTTGGCCTCCTGGCCAACCGCTACAGGCCTCACACTC | 2420 a.u.
GAGGCCTCGCGCGGTTGGCCTCCTGGCCAACCGCGCGAGGCCTCACACTC (5mC at 8) | 2340 a.u.
GAGGCCTGTTCGGGTTGGCCTCCTGGCCAACCCGAACAGGCCTCACACTC (5mC at 33) | 1720 a.u.
CTCAGTACTGTGGGCTGGACTCCTGTCCAGCCCACAGTACTGAGACACTC | 1810 a.u.
GAGGCCCAACCGCCACAGCCTCCTGGCTGTGGCGGTTGGGCCTCACACTC | 2820 a.u.
GAGGCCTGTCGCGGTCGGCCTCCTGGCCGACCGCGACAGGCCTCACACTC | 2470 a.u.
GAGGCCTAACCGCAACAGCCTCCTGGCTGTTGCGGTTAGGCCTCACACTC | 11100 a.u.
CTCAGTTTTGTGGGCTGGACTCCTGTCCAGCCCACAAAACTGAGACACTC | 2230 a.u.
CTCAGTTCTGTGTGCTGGACTCCTGTCCAGCACACAGAACTGAGACACTC | 1840 a.u.
GAGGCCTGTTGTGCGTGGCCTCCTGGCCACGCACAACAGGCCTCACACTC (5mC at 14) | 1800 a.u.
GAGGCCTGTTGTGGGTGGCCTCCTGGCCACCCACAACAGGCCTCACACTC | 2130 a.u.
GAGGCCTGTTGCGGTTGGCCTCCTGGCCAACCGCAACAGGCCTCACACTC | 5920 a.u.
GAGGCCTGTTGCGGGTGGCCTCCTGGCCACCCGCAACAGGCCTCACACTC (5mC at 30) | 2110 a.u.
CTCAGTTCCGTGGGCTGGACTCCTGTCCAGCCCACGGAACTGAGACACTC | 1860 a.u.
GAGGCCTGTCGCGGTTGGCCTCCTGGCCAACCGCGACAGGCCTCACACTC (5mC at 12 32) | 1760 a.u.
GAGGCCCACGCGCAACAGCCTCCTGGCTGTTGCGCGTGGGCCTCACACTC (5mC at 9) | 1840 a.u.
CTCAGTTCTGTGGTCTGGACTCCTGTCCAGACCACAGAACTGAGACACTC | 2590 a.u.
GAGGCCTGTTGCGGTCGGCCTCCTGGCCGACCGCAACAGGCCTCACACTC (5mC at 16 28) | 4710 a.u.

Block 2 — technique: aptamer microarray, sandwich; form: DNA with 2'F-ANA; medium: in vitro; concentration: 200 nM; with: Cy3 exosite-II aptamer, 400 nM; direction: higher = stronger binding; strand: GGTTGGTGTGGTTGG
Target: Prothrombin, mature alpha-thrombin (F2, Homo sapiens, UniProt P00734)
Notes: whole 15-mer aptamer, many near background
Modification | mean fluorescence intensity [a.u.]
2'F-ANA at 3 5 7 9 10 12 15 | 70.1
2'F-ANA at 1 2 3 6 9 11 12 14 15 | 78.2
2'F-ANA at 1 2 3 4 5 7 9 | 77
2'F-ANA at 2 4 5 7 11 13 15 | 52.3
2'F-ANA at 3 4 7 8 11 14 | 416
2'F-ANA at 4 6 7 9 10 11 12 15 | 90.3
2'F-ANA at 1 2 4 5 6 7 9 10 14 15 | 70.6
2'F-ANA at 4 7 8 12 14 15 | 190
2'F-ANA at 1 2 6 7 8 9 10 12 13 | 70.5
2'F-ANA at 3 4 5 6 7 8 12 14 | 58
2'F-ANA at 1 3 4 5 6 7 9 15 | 60.3
2'F-ANA at 1 2 4 5 6 9 10 11 12 13 | 51
2'F-ANA at 1 2 3 6 8 10 11 14 15 | 53.5
2'F-ANA at 7 8 9 10 11 12 14 | 319
2'F-ANA at 1 2 3 5 6 9 12 13 | 82
2'F-ANA at 1 3 4 12 13 14 15 | 101
2'F-ANA at 1 4 6 8 11 | 97.2
2'F-ANA at 1 2 3 4 5 6 7 9 10 11 14 15 | 56.7
2'F-ANA at 2 4 5 7 9 11 13 | 55.6
2'F-ANA at 1 2 4 5 6 8 9 11 12 | 111
2'F-ANA at 2 4 5 8 11 12 15 | 104

Block 3 — technique: RNA Bind-n-Seq; form: RNA; medium: in vitro; concentration: 365 nM; relative to: no-protein control; direction: higher = stronger binding
Target: RNA binding protein fox-1 homolog 2, RRM domain, GST-SBP tag (RBFOX2, Homo sapiens, UniProt O43251-10, residues 100-194)
Notes: natural RNA segment, single round, ends assumed
Target sequence (chain): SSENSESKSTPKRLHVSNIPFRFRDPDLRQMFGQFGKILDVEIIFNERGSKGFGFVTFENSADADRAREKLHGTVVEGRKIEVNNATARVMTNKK
Strand | RBNS enrichment (R)
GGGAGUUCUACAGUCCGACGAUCCUUUGCCACUUCUGCAUUAUUUAGAAACAUACGUUAUUGUACAUUUGUAAACCAUUUACUGUCUGGGCAAUAGUGACUCCGUUUAAUAAAAGCUUCCGUAGUGCAUUGGUUGGAAUUCUCGGGUGCCAA | 0.671
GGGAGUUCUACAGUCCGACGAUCAGCUCUGAAAUUUGAAAGUCUACGAAGAAAGCCUGGGUUCAUCAGCUGCCCAGCCCCACCUCUCCACUGAGCGCUCUCUCUCUCUCCAUCUCCCUCUCUCCCUCUUUCCCUGGAAUUCUCGGGUGCCAA | 0.897
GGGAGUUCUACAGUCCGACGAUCAUCGCUAAGGCCGAUCCUGUAGAAUGCGGCUUUCAAGAGGUCCUAACUGAUCCUUUCUUCCACUUUGCUGUUGAUUUGUUCACAAAUUAUGUCUGAAUGAGAAAUCUUCUUGGAAUUCUCGGGUGCCAA | 0.664
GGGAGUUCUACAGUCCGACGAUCCGUUUAUAACAGUCACAUUUAAUUAUAAUGUACAUCAAAGGCAGAAUUUCAGAAUGGUUUCUUAAAUUUCCUUGGGAACCGUUUCCACAUAUCAGUUAUAGACAAAGGCCUGGAAUUCUCGGGUGCCAA | 0.414
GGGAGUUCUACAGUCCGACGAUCGAAGAGGGGGAGUGAUGGUGCAGCCUACACUAUUCUAGCAGGAGGGUUGGGCGUGCUACCUGCACCGCCCCUUCUCCAACAAGUUGCCUCCAAGCUUUGGGUUGGAGCUGUGGAAUUCUCGGGUGCCAA | 0.273
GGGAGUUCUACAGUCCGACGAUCAAAGAGAAUUCUUUUCUAUAGAACGAGUGGGGGCGGGGAUGGGUAGGGAUUUAUCCAAUCUAAGCCCUAACCCCACUUAGUGACCUCAGUGUUUUCUUCCAUUCCUUCUUUGGAAUUCUCGGGUGCCAA | 0.161
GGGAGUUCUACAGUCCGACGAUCGAAAAUGUGUCAGCAUGCAUAGUGCUAAGAAAGCAAGCCAAUUUGGAAACUUAGGUUAGUGACAAAAUUGGCCAGAGAGUGGGGGUGAUGAUGACCAAGAAUUACAAGUAUGGAAUUCUCGGGUGCCAA | 1.02
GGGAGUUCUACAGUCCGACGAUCCCUGGAAAGAGGCAGUCUUCUUAGCAUGGUGAGCUGAGUUCAUGGCUUUUUUUUGUAGCCAGUCCUGUCCCUGGCCAUCCAUGUGAUGGUUUUGGAUGGAGUUAAACUUGUGGAAUUCUCGGGUGCCAA | 0.511
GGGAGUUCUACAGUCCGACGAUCGCAAAGCCCAGGUUCUUGUUCCACACAGUGUAAUGUAGGUGUAUUUUGGACAGCACAUAUGGUCCAUUGUGUACAAGUCAGUAAUCUGGAUUUCAGUACAUGGAUUUAAAUGGAAUUCUCGGGUGCCAA | 0.673

Block 4 — technique: RNA Bind-n-Seq; form: RNA; medium: in vitro; concentration: 100 nM; relative to: input RNA pool; direction: higher = stronger binding
Target: RING finger protein unkempt homolog, zinc fingers 1-6, SBP tag (UNK, Homo sapiens, UniProt Q9C0B0, residues 30-357)
Chain of UniProt Q9C0B0 (30-357, looked up): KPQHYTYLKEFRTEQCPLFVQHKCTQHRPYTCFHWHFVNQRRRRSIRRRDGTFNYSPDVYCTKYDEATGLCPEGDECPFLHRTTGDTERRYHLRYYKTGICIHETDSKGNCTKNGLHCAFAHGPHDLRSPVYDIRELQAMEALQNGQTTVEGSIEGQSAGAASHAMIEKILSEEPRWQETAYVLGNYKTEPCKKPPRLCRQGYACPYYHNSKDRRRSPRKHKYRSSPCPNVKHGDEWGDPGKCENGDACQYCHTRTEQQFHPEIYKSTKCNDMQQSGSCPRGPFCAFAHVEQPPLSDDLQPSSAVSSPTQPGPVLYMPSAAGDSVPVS
Notes: RNA with constant flanks, vertebrate orthologous sites, ends assumed
Strand | bound/input enrichment [ratio]
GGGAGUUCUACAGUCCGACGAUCGCACAUGCCGCUAUCACCAAAAGCAAACUGCCGCUUUUCAAAUUUCAUUCAGAGCCGUUUUAGUGUUUCCUAUUCCCUACCCUUUCCACUACUUAAUCCUAAAUUCUACAUUCUGACACUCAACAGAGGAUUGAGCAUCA | 2.58
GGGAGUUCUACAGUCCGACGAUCUUACAGUCAUUGAUGGACUCUAUUUUUUUAUUAUUACUUGGACCUUGGUCGUUUUUAUACUAGCAAAACGUCUUGUUUUAAUUUGUGUUUUUUUUUUUUUUGGCGGGGAGGGAGUGAACUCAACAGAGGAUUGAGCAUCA | 5.59
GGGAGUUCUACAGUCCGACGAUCGAACAAAAAUGUUUCCACUGGGUUUUGCCUGUAAGAAAAAAAUGAACCUGAGCACACAAAUAGAGCUUUUUAAAUAGCACUAACCAAUGCCUUUUAGAUGUAUUUUUGAUGUAUAUAUCUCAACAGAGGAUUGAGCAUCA | 0.992
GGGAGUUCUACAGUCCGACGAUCGGGACGCUUUGAUGUAAAAAUUGAAGUUAAGAGCUGAUCACAAGCACAGAUCUUUCCCACUAGCCAUUGAAAAAAAGUAAAAAAGAUAACAAAAACAAAAACCUACUAGUCUUGAACAAACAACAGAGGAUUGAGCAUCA | 2.26
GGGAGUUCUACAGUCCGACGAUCAAAAGAACUCUUGCAGUUUUAGAUGUUAUAAAAAAUAUAUAUCUGAAUUGUAAGAGUUGUUAGCACAGGUUUUUUUUUUUUGUUUUUUUUUAAGCACUUGUUUUGGGUACAAGGCAUUUCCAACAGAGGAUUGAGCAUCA | 0.762
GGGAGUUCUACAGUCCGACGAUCCACCAACUAUAAACUCAGGGCAGUUCUCCCAGUAUCCUUAUGGUAACAUGAAUCAGGGAUUAGUUAACAAUACAGGGAUGAAUCAGAAUCUUGGCCUUACCAGUAAUCCACCAAUGAAUCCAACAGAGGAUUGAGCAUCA | 0.502
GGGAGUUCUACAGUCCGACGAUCGUCCGUUCGCUCAGUCCCCAGCCAGGGUGGCAGGACCGAGGUUUCACCGAGGAACUGCAUUUCAAAAAUAUUUUUUUUUAACUGUCGAACAGGAAGCGACAUGGCUGAAACAGCCUCUGACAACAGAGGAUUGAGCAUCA | 0.495
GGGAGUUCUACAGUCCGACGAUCGUAUGUAGAGAAAAUUUUUCAUUGACCCCCCCCAAUUGUGAAAUUCCCCAGCAAUUUAUUUAGAAUCUUAAUUUUUCUAAUUCAAACUCAUUGUAUUAGUUAUUUUAGCCCAUAAUUAAACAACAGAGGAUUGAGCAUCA | 1.77
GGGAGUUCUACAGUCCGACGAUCGGUUUCUAGUGCUUAUGACAGUUCUGAAAUCCUAUUUAUUUGUAGAUGUAAGUUUGUAUAUAGUAAACCUCACGUUGCUGAAGUUUUCAUCUUGGGGGACAAGUUUGAAUUUUGUUUUGACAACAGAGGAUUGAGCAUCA | 0.732
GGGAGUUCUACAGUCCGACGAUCAGAAAAUUUUAACCAGGAAUCUGAAGGUAGAAAUACAGGACCCUGGUUAUCUUCCUCACUUAGAAAUAGAUGCACACCUUUGUUCUCUAGAAGGAGGCGAGAGGGACGAGAUGAAUCUUCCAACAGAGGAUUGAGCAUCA | 0.878
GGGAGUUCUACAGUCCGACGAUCAAGGAGUAGAAGUUCAAGAUCAUCCUCAGCUAUAUACCAAGUUUGAGACCAGUUUGGGCUGCAUGAGACUAAAAUGUGGUGGCAUGUGUAGAUCAUUGAAGCUCAAAAACAAGGUCUGGGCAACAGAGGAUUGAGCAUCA | 0.524

A few entries again (block 2):
Modification | mean fluorescence intensity [a.u.]
2'F-ANA at 1 2 4 5 6 7 9 10 14 15 | 70.6
2'F-ANA at 4 7 8 12 14 15 | 190
2'F-ANA at 1 2 6 7 8 9 10 12 13 | 70.5
2'F-ANA at 3 4 5 6 7 8 12 14 | 58
2'F-ANA at 1 3 4 5 6 7 9 15 | 60.3
2'F-ANA at 1 2 4 5 6 9 10 11 12 13 | 51
